Assay results of several laboratories.
Numbered parts are unrelated; each lists some results of a single study. Changes are numbered by the printed parent chain.

Block 1
Target: ABI1, truncated, D143A, DHFR fusion (Arabidopsis thaliana)
Method: DHFR PCA, deep sequencing
Sample: yeast
Notes: methotrexate growth selection, single substitutions
Added: (+)-ABA 17 µM
Baseline: wild-type fitted maximum
Direction: higher = stronger binding
Quantity: relative binding score
Starting sequence: PYL1, truncated, DHFR fusion (Arabidopsis thaliana); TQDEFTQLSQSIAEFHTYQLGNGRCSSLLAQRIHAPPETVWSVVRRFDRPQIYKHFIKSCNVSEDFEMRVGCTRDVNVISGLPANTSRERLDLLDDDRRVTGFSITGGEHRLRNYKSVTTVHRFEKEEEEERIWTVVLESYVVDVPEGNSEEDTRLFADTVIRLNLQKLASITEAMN
Substitution = R163L; result = 22.9%
Substitution = D153W; result = -1.62%
Substitution = D3K; result = 73.2%
Substitution = S117L; result = 1.84%
Substitution = V43M; result = 66.3%
Substitution = G23C; result = 46.9%
Substitution = G81P; result = 10.6%
Substitution = F124N; result = 50.5%
Substitution = L20T; result = 85.1%
Substitution = I12N; result = 4.73%
Substitution = P36H; result = 80.5%
Substitution = W134M; result = 99.5%

Block 2
Target: ATF2, bZIP domain (human)
Method: DHFR protein complementation
Sample: yeast
Notes: single substitutions, most at no-binding floor
Baseline: wild-type JUN-FOS pair
Direction: higher = stronger binding
Quantity: binding fitness
Starting sequence: JUN, bZIP domain (human); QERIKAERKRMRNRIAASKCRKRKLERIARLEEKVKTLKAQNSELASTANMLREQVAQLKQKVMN; partner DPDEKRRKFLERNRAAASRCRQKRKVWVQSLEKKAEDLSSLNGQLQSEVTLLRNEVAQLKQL
Substitution = L38D; result = -1.53 natural log
Substitution = E33G; result = -1.45 natural log
Substitution = T37G; result = -1.35 natural log
Substitution = A46Y; result = -1.37 natural log
Substitution = V56E; result = -1.5 natural log
Substitution = A40F; result = -1.42 natural log
Substitution = L52N; result = -1.58 natural log
Substitution = E44I; result = -1.48 natural log
Substitution = I28V; result = -1.2 natural log
Substitution = T48L; result = -1.38 natural log
Substitution = R30H; result = -1.37 natural log

Block 3
Target: Ras GTPase-activating protein-binding protein 1, C-terminal RGG region (G3BP1, Homo sapiens, UniProt Q13283)
UniProt Q13283, sequence (whole entry, looked up): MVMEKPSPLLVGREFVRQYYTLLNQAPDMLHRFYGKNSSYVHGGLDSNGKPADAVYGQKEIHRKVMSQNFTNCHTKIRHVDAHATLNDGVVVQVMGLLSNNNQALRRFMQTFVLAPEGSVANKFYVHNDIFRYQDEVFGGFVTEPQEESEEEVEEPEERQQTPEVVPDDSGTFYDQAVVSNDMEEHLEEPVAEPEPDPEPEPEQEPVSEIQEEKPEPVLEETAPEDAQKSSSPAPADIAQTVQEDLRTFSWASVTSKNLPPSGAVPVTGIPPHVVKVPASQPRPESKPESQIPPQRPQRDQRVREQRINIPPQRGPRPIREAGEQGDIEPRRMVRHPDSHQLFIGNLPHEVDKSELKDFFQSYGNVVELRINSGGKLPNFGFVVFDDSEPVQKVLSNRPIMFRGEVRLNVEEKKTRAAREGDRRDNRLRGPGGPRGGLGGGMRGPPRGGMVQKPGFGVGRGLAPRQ
Method: RNA Bind-n-Seq
Form: RNA
Sample: in vitro
Concentration: 1 µM
Notes: whole 134-nt RNA, ends assumed
Added: 150 mM KCl
Baseline: input library
Direction: higher = stronger binding
Quantity: log2 enrichment
Sequence = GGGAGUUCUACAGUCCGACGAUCGUCCUGUGCUACACAUCGUAUGUACCGAAUCGGGAAAAAGGGAAAAAGGGAAAAAGGGGAAAGUAUUAUGUUACGCCGUUCGGAUCUGCAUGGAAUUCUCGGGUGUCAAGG; result = -0.222
Sequence = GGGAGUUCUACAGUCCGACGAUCUGGGAGGUGGAUUUUGUUUAUUUUUUUAGCUAAUUUCCAGGGGUGGGAAUUUUUUUUUAAUAUGUGUCAUGAAUAAAGUUGUUUUUGAAAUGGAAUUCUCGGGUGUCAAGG; result = 2.8
Sequence = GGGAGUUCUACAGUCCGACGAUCCAAGUCCUGUGCUACACAUCGUAUGUACCGAAUCGGCCCGGGGCCCGGGGCCCGGGAAAGUAUUAUGUUACGCCGUUCGGAUCUGCACUUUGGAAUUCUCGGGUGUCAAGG; result = -1.81
Sequence = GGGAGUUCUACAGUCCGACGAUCCAAGUCCUGUGCUACACAUCGUAUGUACCGAAUCGGAAAAGGGAAAAGGGAAAAGGAAAGUAUUAUGUUACGCCGUUCGGAUCUGCACUUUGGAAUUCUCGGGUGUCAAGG; result = -1.86
Sequence = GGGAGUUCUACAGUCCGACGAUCUCAAGUCCUGUGCUACACAUCGUAUGUACCGAAUCGGAAAAAGGUGGAAAAAGGAAAGUAUUAUGUUACGCCGUUCGGAUCUGCACUUCCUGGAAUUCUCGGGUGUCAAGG; result = -1.4
Sequence = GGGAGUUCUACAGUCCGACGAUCCCUGUGCUACACAUCGUAUGUACCGAAUCGGUUUUUUGGGGUUUUUUGGGGUUUUUUGGGGAAAGUAUUAUGUUACGCCGUUCGGAUCUGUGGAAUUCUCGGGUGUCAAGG; result = -1.13

Block 4
Target: Prothrombin, mature alpha-thrombin (F2, Homo sapiens, UniProt P00734)
Method: aptamer microarray, sandwich
Form: DNA with 2'F-ANA
Sample: in vitro
Concentration: 200 nM
Notes: whole 15-mer aptamer, many near background
Added: Cy3 exosite-II aptamer, 400 nM
Direction: higher = stronger binding
Quantity: mean fluorescence intensity
Sequence: GGTTGGTGTGGTTGG
Modification = 2'F-ANA at 1 4 6 9 11 12 13 14 15; result = 50.9 a.u.
Modification = 2'F-ANA at 1 2 3 5 6 7 8 11 14; result = 46.4 a.u.
Modification = 2'F-ANA at 3 4 5 7 8 9 12 13 14; result = 53 a.u.
Modification = 2'F-ANA at 3 4 5 11; result = 100 a.u.
Modification = 2'F-ANA at 2 6 8 9 10 13 14; result = 81.1 a.u.
Modification = 2'F-ANA at 1 3 4 5 6; result = 72.7 a.u.
Modification = 2'F-ANA at 1 2 3 6 8 10 11 12 13 15; result = 77.9 a.u.
Modification = 2'F-ANA at 4 8 11 13 14; result = 94.8 a.u.
Modification = 2'F-ANA at 1 2 3 5 6 7 8 10 11 12 14; result = 61.3 a.u.
Modification = 2'F-ANA at 3 5 6 8 10 13 14 15; result = 61.3 a.u.
Modification = 2'F-ANA at 2 5 8 9 10 12 14; result = 46.2 a.u.
Modification = 2'F-ANA at 1 5 7 8 10 12; result = 50.1 a.u.
Modification = 2'F-ANA at 7 8 11 12 13 15; result = 728 a.u.
Modification = 2'F-ANA at 1 3 4 5 7 9 10 12; result = 58.6 a.u.

Some of these lines once more (block 2):
Substitution = A40F; result = -1.42 natural log
Substitution = L52N; result = -1.58 natural log
Substitution = E44I; result = -1.48 natural log
Substitution = I28V; result = -1.2 natural log
